Measurements of several laboratories.
A part holds a random share of what one study measured.

Set 1
Target: Centromere-binding protein 1, full length, N-terminal tag (CBF1, Saccharomyces cerevisiae, UniProt P17106, residues 1-351)
UniProt P17106, sequence (whole entry, looked up): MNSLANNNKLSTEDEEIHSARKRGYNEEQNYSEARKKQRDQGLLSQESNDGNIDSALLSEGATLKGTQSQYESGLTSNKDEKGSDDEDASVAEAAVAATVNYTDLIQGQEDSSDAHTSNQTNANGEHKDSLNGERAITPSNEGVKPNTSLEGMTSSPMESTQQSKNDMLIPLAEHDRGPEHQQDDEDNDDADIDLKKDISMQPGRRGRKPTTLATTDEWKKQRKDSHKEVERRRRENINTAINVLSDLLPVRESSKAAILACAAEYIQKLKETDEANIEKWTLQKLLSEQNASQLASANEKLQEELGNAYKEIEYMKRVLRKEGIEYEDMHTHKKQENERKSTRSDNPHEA
Method: protein-binding microarray
Molecule type: double-stranded DNA, one strand shown
Matrix: in vitro
Tested at: 0.8 µM
Notes: whole 60-bp probe, no competitor
Reading: higher = stronger binding
Endpoint: fluorescence intensity
Sequence = GAATTTTCTTTGTGTCACATGTAGACTTTGATATAGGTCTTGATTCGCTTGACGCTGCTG; result = 3050 a.u.
Sequence = CTAACTACTGTAAAGCGGGTGATGCAGTAAGCATTCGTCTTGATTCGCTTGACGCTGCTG; result = 584 a.u.
Sequence = GAAAAAATTTTTTTTTGCACCACGTGATTTTTTTAGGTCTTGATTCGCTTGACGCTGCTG; result = 17000 a.u.
Sequence = CTATAAAAGCATATATACGTGATTCATATGAAGTTCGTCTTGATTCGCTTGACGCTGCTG; result = 642 a.u.
Sequence = TGTACGAAGCTATATCATGCTAGTATAGTAGTTAGGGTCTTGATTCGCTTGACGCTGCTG; result = 508 a.u.
Sequence = GAACCTTTATCTTCCACGCTGATGTAAAGTGTATAGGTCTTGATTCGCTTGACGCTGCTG; result = 588 a.u.
Sequence = CTACGGTACCTATATACCACCAGAAGTATGTGTTTCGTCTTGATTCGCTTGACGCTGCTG; result = 497 a.u.
Sequence = CCTAACTACTATAGTGGTCGGAAATAGCTTCGTACAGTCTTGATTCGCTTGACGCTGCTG; result = 486 a.u.
Sequence = CTATAAATTTGAAATCTCCTGTTGCAAAGGATTTTCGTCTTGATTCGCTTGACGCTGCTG; result = 480 a.u.
Sequence = GAACTATGTCCATATCACGCGCGCTAAAACAGCTAGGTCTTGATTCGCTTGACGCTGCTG; result = 1230 a.u.
Sequence = CCTAACTACTATATTAATATCACATAGCTTCGTACAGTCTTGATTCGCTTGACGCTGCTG; result = 531 a.u.
Sequence = CTACAAGTTTGTGCGCACGACGCCTGTCCGTTGTTCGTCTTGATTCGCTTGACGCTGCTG; result = 553 a.u.
Sequence = TGTACGAAGCTATGTGACACAAATATAGTAGTTAGGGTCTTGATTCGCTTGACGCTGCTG; result = 588 a.u.
Sequence = CTAAAATGTGAAGTTGATGTCACTTCATACTAATTCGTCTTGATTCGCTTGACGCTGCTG; result = 534 a.u.
Sequence = GAATTGATTTGATCCCCCGTGGATTTTGAAAAATAGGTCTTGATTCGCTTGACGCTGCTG; result = 564 a.u.
Sequence = CCTAACTACTATAACTACGTGGCATAGCTTCGTACAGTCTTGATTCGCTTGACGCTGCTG; result = 506 a.u.
Sequence = GAAGGCACACGAAGCGGCCACGTGGGTCTGCGATAGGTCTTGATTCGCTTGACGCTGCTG; result = 3720 a.u.
Sequence = GAATTTTCACGTCGTCATGTGTTTCTTCAGCGCTAGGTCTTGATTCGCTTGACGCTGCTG; result = 1100 a.u.
Sequence = GAAATCGTTTACAGCCATGTGAGGCAGTTACTTTAGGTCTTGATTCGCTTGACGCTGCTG; result = 587 a.u.
Sequence = GAAAAATGGTGGGGTGTGATGGCGCAGACTGTGTAGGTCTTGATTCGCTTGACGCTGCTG; result = 527 a.u.
Sequence = CCTAACTACTATAAAATCGTGTCATAGCTTCGTACAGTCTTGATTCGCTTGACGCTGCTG; result = 499 a.u.
Sequence = GAACCACGTCATGCCCACGTTTCGTTTCCATGCTAGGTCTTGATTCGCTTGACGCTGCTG; result = 692 a.u.
Sequence = GAACAGCAGAAGGGTGATCAGTTGAGGTGGAGATAGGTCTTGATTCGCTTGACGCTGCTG; result = 587 a.u.
Sequence = GAAAAAAGATACATCGTGGTGATGAAGAAGAGATAGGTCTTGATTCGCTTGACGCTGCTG; result = 555 a.u.
Sequence = CTACCTCTCAGCCGTCACGTCTCTAGCTGAAGCTTCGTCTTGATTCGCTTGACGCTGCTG; result = 571 a.u.

Set 2
Target: Interferon regulatory factor 5, full length, phosphomimetic (IRF5, Homo sapiens, UniProt Q13568-2, residues 1-514, S451D/S453D/S456D/S462D)
Method: protein-binding microarray
Molecule type: double-stranded DNA, one strand shown
Matrix: in vitro
Tested at: 940 nM top
Notes: 60-bp whole probe
Added: salmon DNA 0.4 mg/ml
Reference: random background probes
Reading: higher = stronger binding
Endpoint: fitted relative affinity
Shared flanks, not repeated: GCCTAGCAC … GTCTTGATTCGCTTGACGCTGCTG
Sequence = TCATCTTCAGGTTCTCCCACTGTGCTA; result = 0.75 z-score
Sequence = TCATCATTATTGTCTCCCACTGTGCTA; result = 1.32 z-score
Sequence = TTAGGTTTCCTTTTCCTTTAGTGCTAG; result = 2.25 z-score
Sequence = GACAATATCGGGACTGGAGACGTGCTA; result = -0.153 z-score
Sequence = TCATTTCTATATTTGCTACTGTGCTAG; result = 1.21 z-score
Sequence = CTTGAACCTGGGAGGTGGAGGTGCTAG; result = -0.626 z-score
Sequence = TCAACACTAATTTTCAAACTGTGCTAG; result = 0.809 z-score
Sequence = GACGGTTTCGGGTATCGCGACGTGCTA; result = 9.52 z-score
Sequence = TTAGGACTGGACTTTTGGTTAGTGCTA; result = -0.149 z-score
Sequence = TCATCATTTTCTCTGTTACTGTGCTAG; result = 2.49 z-score
Sequence = TTAGGTTTCGGGTATGGGTTAGTGCTA; result = 10.9 z-score
Sequence = CACGGTTTCGGGTTTCGGGACGTGCTA; result = 7.67 z-score
Sequence = GACGGACTGCTTTTCCAGACGTGCTAG; result = -0.416 z-score
Sequence = GACGGTCTCATACTGCTGACGTGCTAG; result = 0.557 z-score
Sequence = CTCTACTTGTGTCTAGAGATGTGCTAG; result = 0.0132 z-score
Sequence = TTAGATTTCAGTAACGATTAGTGCTAG; result = 0.752 z-score
Sequence = TTAGATTCCAGCTTCGATTAGTGCTAG; result = 0.0807 z-score
Sequence = TTAGGTCTCCTTTCCCTTTAGTGCTAG; result = 0.554 z-score
Sequence = ACAGCCTTTCTAACTTGAAAGTGCTAG; result = -0.0428 z-score
Sequence = TTAGGTCTCGGACTGGGTAAGTGCTAG; result = 1.24 z-score
Sequence = GCCGGACTGGACACTGGGGACGTGCTA; result = -0.649 z-score
Sequence = TCATGCCTGTTTTTCCCACTGTGCTAG; result = 0.868 z-score
Sequence = TCACATTTAATTATATGACTGTGCTAG; result = 0.285 z-score
Sequence = GACGGTCTCTTTTTCCTGACGTGCTAG; result = 1.03 z-score
Sequence = TTAGATCTCAGTTTAGATTAGTGCTAG; result = 0.646 z-score

Set 3
Target: RING finger protein unkempt homolog, zinc fingers 1-6, GST-SBP tag (UNK, Homo sapiens, UniProt Q9C0B0, residues 30-357)
Method: RNA Bind-n-Seq
Molecule type: RNA
Matrix: in vitro
Tested at: not given
Notes: RNA with constant flanks, human and mouse sites, ends assumed
Reference: input RNA pool
Reading: higher = stronger binding
Endpoint: bound/input enrichment
Residues (chain): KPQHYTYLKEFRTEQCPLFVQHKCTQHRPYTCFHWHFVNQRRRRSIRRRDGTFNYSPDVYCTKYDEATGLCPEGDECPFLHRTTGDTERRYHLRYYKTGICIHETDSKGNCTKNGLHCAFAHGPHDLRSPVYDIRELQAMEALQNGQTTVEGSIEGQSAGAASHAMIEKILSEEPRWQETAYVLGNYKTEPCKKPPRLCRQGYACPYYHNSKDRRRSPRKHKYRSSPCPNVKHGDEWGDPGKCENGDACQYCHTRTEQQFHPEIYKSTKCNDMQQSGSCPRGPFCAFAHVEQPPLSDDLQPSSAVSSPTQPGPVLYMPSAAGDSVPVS
Sequence = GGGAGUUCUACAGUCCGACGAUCACCGUGCCCUAGAAUUUGCCCCUGCCUGCCAUCGCUUCAAAAUCCUCAAGGCAGAAUGUUUAGCAAUGCUGGGUCGUUAUCCAGAAGCACAGUCUGUGGCUAGUGACAUUCUACGAAUGGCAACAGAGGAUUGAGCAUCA; result = 0.351 ratio
Sequence = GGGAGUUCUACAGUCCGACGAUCACCAGACGGGCGGGGAAUGGUGCCCUGGGUGGCCCCAAGGCCCACCGGAAGUUGCAGACACACCCAUCUCUCGCCAGCCAGGGCAGCAAGAAGAGUAAGAGCAGCAGCAAAUCCACCACCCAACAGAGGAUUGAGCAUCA; result = 0.161 ratio
Sequence = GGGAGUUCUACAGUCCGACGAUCGUGUAGAGUGUUUAACCGAUGAGUAGAGUACAGUAUUCUCUGGUUAAUAAAAUUAUUCUAUUUAGUGCACUUGUUGCACAGAUGAACAUAGACACAAAGAGGCUAUAUGUCUUCUGCUGACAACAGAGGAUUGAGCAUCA; result = 0.331 ratio
Sequence = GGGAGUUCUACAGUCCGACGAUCGCUAUGGACACAGAGUUCCCAGGUGUUGUUGUACGGCCGAUCGGUGAAUUUCGAAGCUCCAUAGAUUACCAGUAUCAGCUUCUGCGGUGCAAUGUUGAUCUUCUUAAAAUCAUCCAGCUGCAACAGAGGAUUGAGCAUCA; result = 0.465 ratio
Sequence = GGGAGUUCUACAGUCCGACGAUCAAACCGCUUUAUCAUCCUUGUGUAUGUACUGGCAGUAUUAAGUUUAUCCAUCAAGAAUGCUUAGUUCAAUGGCUGAAACACAGUCGAAAAGAAUACUGUGAAUUAUGCAAGCACAGAUUUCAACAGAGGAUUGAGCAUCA; result = 0.248 ratio
Sequence = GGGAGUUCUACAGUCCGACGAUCGUGCAGUAGAAUUCAGAGACUUCUCAUUCAAUCUUGUAUCCUAUGCAGCUACAAAUAUUUUUUAAAUGUUAGUAAUAAACAUUGGAAUUUUGUCUUAAAGAGUUCAAAACCUUGGAACCCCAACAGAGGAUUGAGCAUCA; result = 0.263 ratio
Sequence = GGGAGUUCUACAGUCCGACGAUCGUGUUGUGACCCAUUUAACAUACACAAGAAGCUAGCCAAAAAGAACCUGCACGUCAUUGACUUAGAUGAUGCCACUUUUCUGAGCGCCAAGUUUGGAAGACAGCUUGUACCUGGUUGGAACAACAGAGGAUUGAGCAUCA; result = 0.75 ratio
Sequence = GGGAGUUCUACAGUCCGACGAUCGUUGUGGUCUGAUCAGUUAAUUUGUAUGUGGCAAUGUGUGCUUUCAUACAGUUACUGACUUAUGAAUGAUUGAUUUGACAGAGACCCAAGCUGCCCAUUUCACUUAUGGGUUUUAAAUAACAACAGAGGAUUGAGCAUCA; result = 0.0811 ratio
Sequence = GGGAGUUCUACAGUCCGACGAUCAACCAAGGCAUUGCUCCCGUCCAGGUCUGUACCAAUCUCUUGAUCAAGCAAGUGGUGGAAGUAGCUUGUGGCUCACAUCAUUCAAUGGCUCUGGCAGCUGAUGGAGAGGUGUUUGCUUGGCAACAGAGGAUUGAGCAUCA; result = 0.124 ratio
Sequence = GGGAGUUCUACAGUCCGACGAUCGAGUAUUAUUUACAGACCUGAAGGAAGGUGGGCUUAACCCCAAGGCUAAGUGUAAAUGUUUCUUGAAUUGAUUCUUUCUGUGGUACAAGUUAACACCUGUGUAUAUCAUAUCUGUAUAUACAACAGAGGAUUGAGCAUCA; result = 0.156 ratio
Sequence = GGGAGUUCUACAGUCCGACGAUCAGUCUUGUGAAUGAGACCACUUUGAUUAAAUACUCCAGGCUGCCAACCAUAAACAAGCAUAGUUUCCGGUACUUUGUCUUGGAUAACAGUGUCAUCCUGGCAAUGCUGGAACAACCUCUUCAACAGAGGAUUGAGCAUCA; result = 0.129 ratio

Set 4
Target: Histone acetyltransferase KAT6A, both winged helices, GST fusion (KAT6A, Homo sapiens, UniProt Q92794, residues 1-181)
Method: protein binding microarray
Molecule type: double-stranded DNA, one strand shown
Matrix: in vitro
Tested at: not given
Notes: 8-mer, flanks averaged, mean of 2 arrays, mostly near background
Reference: not given
Reading: higher = stronger binding
Endpoint: E-score
Residues (chain): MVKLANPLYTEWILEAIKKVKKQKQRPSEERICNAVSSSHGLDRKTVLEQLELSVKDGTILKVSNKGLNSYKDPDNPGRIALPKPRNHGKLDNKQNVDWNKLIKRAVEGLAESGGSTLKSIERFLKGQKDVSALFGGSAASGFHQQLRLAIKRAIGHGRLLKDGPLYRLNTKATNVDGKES
Sequence = ACGTCGTG; result = -0.064
Sequence = AGGCTCGA; result = -0.0157
Sequence = AATATGAG; result = -0.0494
Sequence = GTACTCTA; result = -0.05
Sequence = ACCTAGGG; result = -0.105
Sequence = CCCGCTCG; result = 0.285
Sequence = GCTAACGA; result = -0.0235
Sequence = GGATATCA; result = 0.109
Sequence = GGGAATTA; result = -0.035
Sequence = CCCGTGAA; result = 0.165
Sequence = AGCGCGAA; result = 0.272
Sequence = GTGACTTA; result = 0.00236
Sequence = GGATCCCC; result = 0.0527
Sequence = AGTGTAAA; result = -0.106
Sequence = ATCAATAG; result = -0.177
Sequence = ATAAACGC; result = 0.149
Sequence = TATTTTCA; result = -0.0179
Sequence = CGAGTGCC; result = 0.0536
Sequence = CGGCACCC; result = 0.173
Sequence = GAGCAAGC; result = -0.0169
Sequence = AAAGAAGT; result = -0.135
Sequence = AAGGATCC; result = -0.0898
Sequence = ATCCACTG; result = -0.0895
Sequence = AAGACATC; result = -0.08

A few entries again (set 4):
Sequence = CCCGCTCG; result = 0.285
Sequence = AAGGATCC; result = -0.0898
Sequence = AATATGAG; result = -0.0494
Sequence = CGAGTGCC; result = 0.0536
Sequence = GCTAACGA; result = -0.0235
Sequence = GGGAATTA; result = -0.035
Sequence = ATCAATAG; result = -0.177
Sequence = GGATCCCC; result = 0.0527
Sequence = ATAAACGC; result = 0.149
